Published values collected from several papers.
Each line is one published result; not all experiments were run side by side. ± gives the spread as reported.

`Nc1ncc(-c2nc(N3CCOCC3)nc(N3CCOCC3)n2)c(C(F)F)n1` has a GI50 of 1.77 µM (SHP77; 72 h).
`COc1c(CCC[P+](c2ccccc2)(c2ccccc2)c2ccccc2)cc2c(c1OC)OCO2.[I-]` gave an LC50 of -4.56 log M (SNB-75; SRB).
`COc1ccc2c(c1)[nH]c1c(C)nccc12` gave a DNA methylation of 88% (DU-145; bisulfite pyrosequencing, refers to: RASSF1A promoter CpG site 19; 10 µM, 16 h).
`COc1cc(CCC[P+](c2ccccc2)(c2ccccc2)c2ccccc2)c(OC)c2c1OCO2.[I-]` has a mean Log10GI50 of -5.78 log M (NCI60 panel; SRB).
`COc1c(C)c2c(c(O)c1C/C=C(\C)CCC(=O)O)C(=O)OC2` gave an IC50 of 0.49 µM (Ovarian cancer cell lines; cell proliferation).
For `Nc1ncnc2c1ncn2[C@@H]1O[C@@H]2COP(=O)(O)O[C@H]3[C@@H](O)[C@H](n4cnc5c(=O)[nH]cnc54)O[C@@H]3COP(=O)(O)O[C@H]2[C@H]1O`, “pathway fold enrichment” read 2.23 (HFF-1; RNA sequencing, refers to: Signaling by Rho GTPases; downregulated pathway; baseline: Zika virus alone).
`C/C=C(/C)C(=O)O[C@H]1C(C)=C2[C@H]([C@@H]1OC(=O)CCCCCCC)[C@@](C)(OC(C)=O)C[C@H](OC(=O)CCC)[C@@]1(O)[C@H]2OC(=O)[C@@]1(C)O` — result for “normalized enrichment score”: 1.73 (HEK-293T; RNA-seq GSEA, refers to: Hallmark apoptosis; 500 nM, 6 h; direction not given).
Under “G1 phase cells”, `O=S(=O)(c1ccc(O)cc1)c1ccc(O)cc1` is recorded as 69.7 ± 6.74% (HepG2 spheroids; Hoechst flow cytometry; 0.1 µM, 24 h).

Excerpt of the above:
`COc1ccc2c(c1)[nH]c1c(C)nccc12` gave a DNA methylation of 88% (DU-145; bisulfite pyrosequencing, refers to: RASSF1A promoter CpG site 19; 10 µM, 16 h).
